Results collected from several papers.
Compare with care: the assays were run in different laboratories. “And” joins repeats or separate records; there may be more than shown.
Target: Serine/threonine-protein kinase D3 (PRKD3, Homo sapiens, UniProt O94806)

The inhibition of Cc1cccc(O[C@H]2CCC[C@@H](C(C)CNCc3ccncc3)C2)c1 (relative stereo) is reported as 5% (enzyme activity, inhibitor; 1 µM).
For COc1cc(Nc2nccc(-c3cnn4nc(OC)ccc34)n2)cc(C(F)(F)F)c1, the remaining binding was 100% (binding, competition with immobilised ligand; 1 µM).
Cc1ccc(-c2c(/C=C(\C#N)C(=O)NC(C)C)n(CCCO)c3ncnc(N)c23)cc1 has a remaining binding of 94% (cell-free assay, competition with immobilised ligand; 1 µM).
The inhibition of CN1CCN(Cc2ccc(-c3ccc(CO[C@H]4CCC[C@@H]4NC(=O)c4cc(-c5cnn(C)c5)cnc4N)cc3)cc2)CC1 is reported as 11% (enzyme activity, inhibitor; 0.1 µM).
For CCn1cc(C(=O)O)c(=O)c2c(N)c(F)c(NC3CCCCC3)cc21, the inhibition was -2.6% (kinase activity; 0.1 µM, with: ATP at Km).
The inhibition of C=CC(=O)Nc1cc(-c2nn(C3CCN(CCNC(=O)[C@H](C)CCC45CC6CC(CC(C6)C4)C5)CC3)c3ncnc(N)c23)ccc1Oc1ccccc1 is reported as 8.2% (inhibitor, KiNativ profiling; biochemical; 2 µM).
COCC12C(=O)NC3C4(C(OC)CC1O)C1CC5(O)C(OC)C(O)C(OC(C)=O)(C1C5OC(=O)c1ccccc1)C3(O)C(OC)C24 (centres unmarked) gave a remaining activity of 97% and 94% (kinase activity, inhibitor, ProQinase kinase profiling; 25 µM; reference: control).
Nc1ncc(-c2cc(-c3cnn(CC(F)(F)F)c3)ncc2F)nc1C(=O)NC1CNCC(F)C1 (centres unmarked) has a remaining activity of 79.3% (enzyme activity; 1 µM; reference: DMSO control).
The remaining binding of CNC1C[S+]2CC[S+]3CC[S+](C1)[Ru-4]321([N]=C=S)[n]2c3ccc(OC)cc3c3c4c(c5cc(F)c[n+]1c5c32)C(=O)NC4=O (centres unmarked) is reported as 81% (KinomeScan; 0.1 µM; reference: untreated).
CN1CC[C@@H](COc2cnc(C#N)cc2-c2ccn3nc(NC(=O)C4CC4)cc3c2)C1 has an inhibition of -7% (enzyme activity, inhibitor; 1 µM).
C=CC(=O)Nc1cccc(-c2cnc3[nH]cc(C(=O)NC(C)(C)C)c3n2)c1 gave an inhibition of 10% and 12% (kinase activity; 0.1 µM).
COc1c(Cl)cccc1Nc1c(-c2ccncc2C#C[C@@]2(C)CCCN2C(=O)/C=C/CN(C)C)[nH]c2c1C(=O)NCC2 gave a remaining binding of 85% (binding, competition with immobilised ligand; 3 µM).
NC(=O)C[C@H]1CCc2sc3ncnc(O[C@H]4CC[C@H](N5CCOCC5)CC4)c3c21 gave an inhibition of 9% (enzyme activity, inhibitor; 10 µM).
For C=CC(=O)N1CCCC(n2c(=O)c3ncccc3n(Cc3ccc(Oc4ccccc4)cc3)c2=O)C1 (centres unmarked), the remaining binding was 86% (cell-free assay, competition with immobilised ligand; 1 µM).

Excerpt of the above:
C=CC(=O)Nc1cccc(-c2cnc3[nH]cc(C(=O)NC(C)(C)C)c3n2)c1 gave an inhibition of 10% and 12% (kinase activity; 0.1 µM).
